Assay results pooled from the literature.
Compare with care: the assays were run in different laboratories. Values joined by “and” are separate records of one study, mostly repeats; a detail may differ. Numbers after ± are the reported error.

With `CC(=O)[C@]1(O)Cc2c(O)c3c(c(O)c2[C@@H](O[C@H]2C[C@H](N)[C@H](O)[C@H](C)O2)C1)C(=O)c1ccccc1C3=O` the EC50 was 1.32 µM (Toxoplasma gondii; parasite growth; HFF, bradyzoite, glutamine-induced).
For `Nc1ccn([C@H]2CC[C@@H](CO)O2)c(=O)n1`, the selectivity index was over 267 (HIV-1; MT4, IIIB wild type; reference: CC50 over EC50).
The IC50 of `CC(C)=CC(=O)Nc1ccc(C2=C(c3ccc(O)cc3)C3CC(S(=O)(=O)N(CC(F)(F)F)c4ccc(C)cc4)C2O3)cc1` (centres unmarked) is reported as 23.4 ± 1.89 µM (MCF-10A; cell viability; 72 (unit not given)).
`C[C@]12CC[C@@H]3c4ccc(O)cc4C[C@@H](CCCCCCCCC[S+]([O-])CCCC(F)(F)C(F)(F)F)[C@H]3[C@@H]1CC[C@@H]2O` (some centres unmarked) has a viability of 45.2% and 54.8% and 49.5% (MCF7; CCK-8; 100 nM; reference: untreated).
`COc1cc(/C=C/C(=O)N2CCC=CC2=O)cc(OC)c1OC` has an EC90 of 15.5 µM (Toxoplasma gondii; parasite growth; HFF, bradyzoite, alkaline-induced).
`CC(=O)O[C@H]1C(=O)[C@@]2(C)[C@H]([C@H](OC(=O)c3ccccc3)[C@]3(O)C[C@H](OC(=O)[C@H](O)[C@@H](NC(=O)c4ccccc4)c4ccccc4)C(C)=C1C3(C)C)[C@]1(OC(C)=O)CO[C@@H]1C[C@@H]2O` gave a viability of 90.4% (CHP-212 parental; SRB; 0.001524 µM).
`C#Cc1cccc(Nc2ncnc3cc(OCCOC)c(OCCOC)cc23)c1` gave a viability of 81.1% (HPrEC normal prostate epithelial cells; MTT; 0.4 µg/mL, 2% serum).
With `COc1ccc(N(CC(F)(F)F)S(=O)(=O)C2CC3OC2C(c2ccc(O)cc2)=C3c2ccc(NC(=O)C=C(C)C)cc2)cc1` (centres unmarked) the IC50 was 5.16 ± 0.15 µM (MCF-10A; cell viability; 72 (unit not given)).
`Cn1cc(-c2ccc(-c3cncc(Cl)c3N3CCC4(CCNC4=O)CC3)cc2)cn1`: “log2 fold change” 1.9 (COLO 205; gene expression, microarray, item: CARD6 mRNA; concentration not given, 2 h; reference: untreated cells).
`COc1cccc2c1C(=O)c1c(O)c3c(c(O)c1C2=O)C[C@@](O)(C(=O)CO)C[C@@H]3O[C@H]1C[C@H](N)[C@H](O)[C@H](C)O1` gave a viability of 55.5% and 52.2% (CHP-212 parental; SRB; 0.04115 µM).
For `O=C(CBr)Nc1ccc(OS(=O)(=O)C2CC3OC2C(c2ccc(O)cc2)=C3c2ccc(O)cc2)cc1` (centres unmarked), the IC50 was 5.16 ± 0.88 µM (MCF-10A; cell viability; 72 (unit not given)).
`Cc1nn(-c2nc3c(F)cc(F)cc3s2)c(O)c1C(c1ccc(C(F)(F)F)cc1)c1c(C)nn(-c2nc3c(F)cc(F)cc3s2)c1O` gave a CC50 of 93.4 µM (THP1-Dual; cell viability, CCK-8; 24 h).
For `C=CC(=O)Nc1ccc(C2=C(c3ccc(O)cc3)C3OC2CC3S(=O)(=O)Oc2ccccc2)cc1` (centres unmarked), the IC50 was 15.9 ± 2.2 µM (MCF-10A; cell viability; 72 (unit not given)).
With `CC(C)C[C@H](NC(=O)[C@H](Cc1ccccc1)NC(=O)c1cnccn1)B(O)O` the viability was 99.7% (CHP-212 parental; SRB; 0.004572 µM).
`COc1cccc(-c2n[nH]c(SCc3ccccn3)n2)c1OC` — result for “binucleated cells with micronuclei”: 1.4% (CHO-WBL; 200 µg/mL, 3 h, without S9).
The viability of `CC(=NNC(=O)COc1ccc2c(C)c(Cc3ccccc3)c(=O)oc2c1C)c1ccc(Br)cc1` is reported as 57.8% (HPrEC normal prostate epithelial cells; MTT; 25 µg/mL, 2% serum).
For `Cc1cc(C(=O)NC(C)(C)COc2cccc3c2C(N)=NS(=O)(=O)N3)cc(C)n1`, “micronucleated binucleated cells” read 0.3% (human peripheral blood lymphocytes; in vitro micronucleus test; 2000 µg/mL, 4 h, with rat liver S9 activation, DMSO 0.4%).

A few entries again:
With `CC(C)C[C@H](NC(=O)[C@H](Cc1ccccc1)NC(=O)c1cnccn1)B(O)O` the viability was 99.7% (CHP-212 parental; SRB; 0.004572 µM).
`COc1cccc(-c2n[nH]c(SCc3ccccn3)n2)c1OC` — result for “binucleated cells with micronuclei”: 1.4% (CHO-WBL; 200 µg/mL, 3 h, without S9).
